Measured values of several laboratories.
Compare with care: the assays were run in different laboratories.
Target: Histone deacetylase 1 (HDAC1, Homo sapiens, UniProt Q13547)
Chain of UniProt Q13547 (whole entry, looked up): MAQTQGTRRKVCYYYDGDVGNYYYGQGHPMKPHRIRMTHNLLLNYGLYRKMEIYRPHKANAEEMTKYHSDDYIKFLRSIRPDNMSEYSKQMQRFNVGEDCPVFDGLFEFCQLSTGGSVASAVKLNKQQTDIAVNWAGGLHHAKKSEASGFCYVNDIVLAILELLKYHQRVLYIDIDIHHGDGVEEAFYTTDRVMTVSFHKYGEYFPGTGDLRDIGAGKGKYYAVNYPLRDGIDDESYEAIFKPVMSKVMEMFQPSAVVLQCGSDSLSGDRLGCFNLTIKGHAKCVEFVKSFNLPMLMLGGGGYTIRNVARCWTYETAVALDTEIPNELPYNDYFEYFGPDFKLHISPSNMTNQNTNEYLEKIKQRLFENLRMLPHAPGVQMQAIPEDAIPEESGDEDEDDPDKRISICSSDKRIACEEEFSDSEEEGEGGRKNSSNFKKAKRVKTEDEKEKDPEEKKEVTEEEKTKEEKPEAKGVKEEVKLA
Effect on: enzyme activity
Action: inhibitor

COC(=O)CCCCCCC(=O)Nc1cccc(Nc2ncc(F)c(-c3cc(F)c4nc(C)n(C(C)C)c4c3)n2)c1 gave an IC50 of over 1 µM.
For C[S@@](=N)(=O)c1ccc(C(=O)Nc2cc(-c3ccc(F)cc3)ccc2N)cc1, the IC50 was 0.005 µM (fluorescence).
The IC50 of C=CC[C@@H]1NC(=O)CCSCc2nc3ccccc3nc2CSC/C=C/CNC(=O)[C@H](CCCCCC(=O)N(O)CCCCCC)NC1=O is reported as 1.1 µM (fluorescence).
For O=C(NO)c1cncc(OS(=O)(=O)Oc2ccc(Oc3ccccc3)cc2)c1, the IC50 was 6.26 µM (fluorescence).
Cc1nc2c(F)cc(-c3nc(Nc4ccc(CC(=O)NCCCCCCCC(=O)NO)cc4)ncc3F)cc2n1C(C)C gave an IC50 of 0.075 µM.
The IC50 of CC(C)c1ccc(OS(=O)(=O)Oc2cncc(C(=O)NO)c2)cc1 is reported as 2.06 µM (fluorescence).
With O=C(CCc1ccc(CNC(C(=O)OC2CCCC2)C2CCCCC2)cn1)NO (stereo not drawn) the IC50 was 0.676 µM.
CC[C@H](C)[C@@H]1NC(=O)[C@H](Cc2ccccc2C(F)(F)F)NC(=O)CCSCc2cccc(n2)CSCCCNC(=O)[C@H](CCCCCC(=O)NO)NC1=O gave an IC50 of 0.011 µM (fluorescence).
COC(=O)CCCCCCC(=O)Nc1ccc(Nc2ncc(F)c(-c3cc(F)c4nc(C)n(C(C)C)c4c3)n2)cn1 gave an IC50 of over 1 µM.

Excerpt of the above:
With O=C(CCc1ccc(CNC(C(=O)OC2CCCC2)C2CCCCC2)cn1)NO (stereo not drawn) the IC50 was 0.676 µM.
